Experimental data gathered from unrelated publications.
Every numbered part comes from another study and shows a few of its results, in no order.

Series 1 — technique: protein binding microarray; form: double-stranded DNA, one strand shown; sample: in vitro; tested at: not given; baseline: not given; reading: higher = stronger binding; quantity: E-score
Target: Histone acetyltransferase KAT6A, winged helix 2, GST fusion (KAT6A, Homo sapiens, UniProt Q92794, residues 85-181)
Setting: 8-mer, flanks averaged, mean of 2 arrays, mostly near background
Construct (chain): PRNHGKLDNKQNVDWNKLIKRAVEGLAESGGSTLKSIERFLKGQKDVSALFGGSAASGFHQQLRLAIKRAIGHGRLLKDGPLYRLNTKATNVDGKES
ATGAAAGG: 0.0138
CTAAGTAA: -0.0481
TAAAGGAA: -0.142
ATCTCCAC: -0.0686
ACAGTGTG: -0.097
CACCGCCC: 0.202
AATGACAT: -0.0204
CCAACAAG: 0.00234
ACCCGGTG: -0.0614
CCTGAGGA: -0.0239
GGCGGCTA: 0.142
ATCTTGTA: 0.00995
AAACTTGA: 0.0979
CTTCTTGC: 0.151
CTAGTCCC: 0.00464
CACAAAAC: 0.12
ATTCGCGG: 0.143
AAGTCATT: -0.233
GGCGTGTA: -0.0176
GACAGTAA: -0.00694
GGGGCGAC: 0.0772
CCGAGGCG: 0.196
CTGGTTGA: -0.083
ATGACAAC: -0.117
ACATATAA: -0.0487

Series 2 — technique: protein-binding microarray; form: double-stranded DNA, one strand shown; sample: in vitro; tested at: 2540 nM top; setting: 60-bp whole probe; together with: salmon DNA 0.4 mg/ml; baseline: random background probes; reading: higher = stronger binding; quantity: fitted relative affinity; shared flanks, not repeated: GCCTAGCAC … GTCTTGATTCGCTTGACGCTGCTG
Target: Interferon regulatory factor 3, full length, phosphomimetic (IRF3, Homo sapiens, UniProt Q14653, residues 1-427, S386D/S396D/S398D/S402D/T404D/S405D)
UniProt Q14653, sequence (whole entry, unmodified, looked up): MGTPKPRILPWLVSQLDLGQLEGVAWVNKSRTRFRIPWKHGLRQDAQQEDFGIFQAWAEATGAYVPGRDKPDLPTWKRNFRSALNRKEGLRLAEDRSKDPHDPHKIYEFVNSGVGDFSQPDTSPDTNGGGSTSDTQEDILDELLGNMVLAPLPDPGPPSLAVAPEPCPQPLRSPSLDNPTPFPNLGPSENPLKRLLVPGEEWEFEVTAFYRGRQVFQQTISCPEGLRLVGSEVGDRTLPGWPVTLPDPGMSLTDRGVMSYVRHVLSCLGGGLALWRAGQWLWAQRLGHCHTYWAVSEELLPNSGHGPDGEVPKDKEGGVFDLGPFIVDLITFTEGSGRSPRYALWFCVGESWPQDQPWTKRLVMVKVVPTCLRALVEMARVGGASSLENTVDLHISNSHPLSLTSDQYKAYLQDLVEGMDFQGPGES
GACGGTTTCGGGTTTCGGCACGTGCTA: 5.53 z-score
TTAGGTTTCGACTGTCGGTTAGTGCTA: 1.78 z-score
GACGGTATCCTTTGCCTGACGTGCTAG: 2.63 z-score
GACGGTTTGCTTCTCCTGACGTGCTAG: 1.39 z-score
GACGATGTCGGGTATCGAGACGTGCTA: -0.245 z-score
TCACCAATCATTTTTGCACTGTGCTAG: 1.3 z-score
CTTTCCTTTGCTTTCTCCCAGTGCTAG: 4.76 z-score
GACGATCTCAGTATCGAGACGTGCTAG: 0.851 z-score
GACGGTTTCCTTTACCTGACGTGCTAG: 6.69 z-score
TTAGGTATCCTTTTCCTTCAGTGCTAG: 8.29 z-score
TTAGGTTGCCTTCTCCTTTAGTGCTAG: 6.26 z-score
GACGATATCGACTATCGGGACGTGCTA: 0.144 z-score
TTGGGTATCCTTATCCTTTAGTGCTAG: 3.98 z-score
AGAGTAAATTAAGTTAGAACGTGCTAG: -0.197 z-score
TCAACATTGCACAATCTTACTGTGCTA: 0.346 z-score
TCAGTTTCCCCTATTTAACTGTGCTAG: 5.45 z-score
TTAGGTTCCGACACTGGGTTAGTGCTA: 0.881 z-score
ACTCAGTAACATTATTGTAGGTGCTAG: 0.273 z-score
GACGATCTCAGCCTGGAGACGTGCTAG: -0.038 z-score
TTAGAACTGAGCCTCGATTAGTGCTAG: -0.511 z-score
TTCGGACTGCTTATCCTTTAGTGCTAG: 0.0207 z-score
TCATTTTTTTTTCCCTGACTGTGCTAG: 1.42 z-score
AACGATTTCAGTATCGAGACGTGCTAG: 2.18 z-score
AAGTGTTTCTCAACCAGTTTGTGCTAG: 1.25 z-score
TTAGATTTCGGGTTGCGATTAGTGCTA: 1.74 z-score

Series 3 — technique: RNA Bind-n-Seq; form: RNA; sample: in vitro; tested at: 200 nM; setting: whole 134-nt RNA, ends assumed; together with: 150 mM KCl; baseline: input library; reading: higher = stronger binding; quantity: log2 enrichment
Target: Ras GTPase-activating protein-binding protein 1, full length (G3BP1, Homo sapiens, UniProt Q13283)
UniProt Q13283, sequence (whole entry, looked up): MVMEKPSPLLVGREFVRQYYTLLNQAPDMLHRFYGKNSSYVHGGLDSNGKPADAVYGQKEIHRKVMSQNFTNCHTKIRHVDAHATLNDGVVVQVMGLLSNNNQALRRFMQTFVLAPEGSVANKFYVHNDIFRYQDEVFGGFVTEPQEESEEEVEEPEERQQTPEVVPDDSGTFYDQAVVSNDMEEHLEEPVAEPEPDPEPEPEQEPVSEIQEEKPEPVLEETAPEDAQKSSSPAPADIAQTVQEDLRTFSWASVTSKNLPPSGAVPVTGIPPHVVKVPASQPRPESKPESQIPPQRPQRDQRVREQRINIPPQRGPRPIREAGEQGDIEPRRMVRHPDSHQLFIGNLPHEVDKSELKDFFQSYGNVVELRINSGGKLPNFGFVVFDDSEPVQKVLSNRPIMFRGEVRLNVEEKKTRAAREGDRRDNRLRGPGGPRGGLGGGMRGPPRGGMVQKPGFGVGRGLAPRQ
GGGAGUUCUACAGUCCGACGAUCCCUCAAGUCCUGUGCUACACAUCGUAUGUACCGAAUCGGUUUGGAGGAAAGGAAAGUAUUAUGUUACGCCGUUCGGAUCUGCACUUCCAGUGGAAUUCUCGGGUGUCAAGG: -0.00383
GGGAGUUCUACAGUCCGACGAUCUCAAGUCCUGUGCUACACAUCGUAUGUACCGAAUCGGUUUGGAAAAAAAGGAGGAAAGUAUUAUGUUACGCCGUUCGGAUCUGCACUUCCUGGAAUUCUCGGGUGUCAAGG: -0.578
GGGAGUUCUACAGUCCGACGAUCUGGGAGGUGGAUUUUGUUUAUUUUUUUAGCUCAUUUCCAGGGGUGGGAAUUUUGUUUUAAUAUGUGUCAUGAAUAAAGUUGUUUUUGAAAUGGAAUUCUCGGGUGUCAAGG: 0.0479
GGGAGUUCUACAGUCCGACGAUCUAACUUUAGAGGCGGAUCUGAUGGAUAUGGCAGUGGACGUGGAUUUGGGGAUGGCUAUAAUGGGUAUGGAGGAGGACCUGGAGGUGGCAAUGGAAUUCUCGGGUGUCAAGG: 0.451
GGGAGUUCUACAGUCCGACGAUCGUCCUGUGCUACACAUCGUAUGUACCGAAUCGGGUUUUUUGGUUUUUUGGGUUUUUUGGAAAGUAUUAUGUUACGCCGUUCGGAUCUGCAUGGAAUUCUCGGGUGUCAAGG: -1.03
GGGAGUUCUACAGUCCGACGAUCGCAGGAAGUAAAAACAAAUGGAAAUGCUUCGGAUAGUGGCAGGGGUGUGGGUUGCUAAGGAAAGGGUGGGAUGGGAGUGGGUAAAGAGUUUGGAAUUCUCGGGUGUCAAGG: 0.982
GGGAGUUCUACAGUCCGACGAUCCUGUGCUACACAUCGUAUGUACCGAAUCGGGGUUUUUUUGGGGUUUUUGGGGAAAAAGGGGAAAGUAUUAUGUUACGCCGUUCGGAUCUGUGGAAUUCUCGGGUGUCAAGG: -0.364
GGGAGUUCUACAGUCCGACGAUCACCAUGCAGGUGGGCAUCAAAGGGAAGUGGGGCAAGGGGGGGAUAGGGAGGGGGGUAACACUUUGGGAACAGGUGGUCCCAGGUCGUUUCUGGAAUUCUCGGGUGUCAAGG: 1.11
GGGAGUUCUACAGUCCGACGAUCGAAAUUGAACCAGCAGCGAUGAAAGCAGCAGCUGCUGCCCCUGCCUCAGAGGAUGAGGACGAUGAGGAUGACGAAGAUGAUGAGGAUGACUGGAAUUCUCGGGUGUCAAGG: -0.421
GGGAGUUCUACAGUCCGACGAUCUUGUGAUAGCCAAGUGGGACUACACCGCCCAGCAGGACCAGGAGCUGGACAUCAAGAAGAACGAGCGGCUGUGGUUGCUGGACGACUCCAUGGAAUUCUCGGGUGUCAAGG: -1.53
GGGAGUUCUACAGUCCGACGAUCCCUGUGCUACACAUCGUAUGUACCGAAUCGGGAAAAAAAGGAAAAAAAGGGAAAAAAAGGAAAGUAUUAUGUUACGCCGUUCGGAUCUGCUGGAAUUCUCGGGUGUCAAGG: -0.817
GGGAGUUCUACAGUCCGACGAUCUAACUUUAGAGGAGGAUCUGAUGGAUAUCGCAGUGGACGUGGAUUUGGGGAUGGCUAUAAUGGGUAUGGAGGAGGACCUGGAGGUGGCAAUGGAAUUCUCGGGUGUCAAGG: 0.388
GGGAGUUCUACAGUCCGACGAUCUCCUCAAGUCCUGUGCUACACAUCGUAUGUACCGAAUCGGAGGGAGGGAGGAAAGUAUUAUGUUACGCCGUUCGGAUCUGCACUUCCAGCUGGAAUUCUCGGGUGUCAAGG: -0.213
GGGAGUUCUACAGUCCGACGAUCGCAGGAAGUAAAAACAAAUGGAAAUUCUUCGGAUAGUGGCAGGGGUGGGGGUUGCUAAGGAAAGGGUGGGAUGGGAGUGGGUAAAGAGUUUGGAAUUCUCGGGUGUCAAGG: 0.735

Series 4 — technique: RNA Bind-n-Seq; form: RNA; sample: in vitro; tested at: 365 nM; baseline: no-protein control; reading: higher = stronger binding; quantity: RBNS enrichment (R)
Target: RNA binding protein fox-1 homolog 2, RRM domain, GST-SBP tag (RBFOX2, Homo sapiens, UniProt O43251-10, residues 100-194)
Setting: natural RNA segment, single round, ends assumed
Target sequence (chain): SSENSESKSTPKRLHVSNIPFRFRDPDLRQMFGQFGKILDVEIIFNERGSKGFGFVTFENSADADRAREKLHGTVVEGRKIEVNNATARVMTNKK
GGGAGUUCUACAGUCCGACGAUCAGGGUACCUUCAGAUGAGAUACCUGCUUGUAUUUUAAGAGAAACAAGUAGCCAAAGAAACUCUGUCACUUUGGUAACACCAGAACUUGCCACAUGUAGCUACUACAGCAAUGGAAUUCUCGGGUGCCAA: 0.338
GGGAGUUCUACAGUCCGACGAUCGCCCACAGUGUCCUGUUGGCCAGCGGGGUUCACGGCUAGUGUCUGGAAGCCUGCUGGCCUCGGGUAUGGGCUUCUCUGCCAGUCUCUGGACUGGCCCUUCAAGGAGGUGGUGGAAUUCUCGGGUGCCAA: 0.181
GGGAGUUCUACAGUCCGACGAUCUCCAGCACACAGUGUGUAUGUUGGAGGGAGUGUGGAUUAGCAGAGAAUGAGAACUACCUCAGCUAUUCCUGCCAUAACCACACUGAGAGAGGGGGGCACGGUGGGGAGCCUGGAAUUCUCGGGUGCCAA: 1.23
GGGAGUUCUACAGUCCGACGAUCUCUUAACAGGUACGGCACACACAAGUUAAUAGUACUCUGCUAUAGGUGCUAUGUUACUUACAAGUAUUAUUAACCUAUUGGCUUCCAUUGUAUAGUAGUUUAGUAACUAUUGGAAUUCUCGGGUGCCAA: 0.533
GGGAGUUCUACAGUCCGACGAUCGUUGCAGAUGGGUGAUAUAUAAUGGUAAUAGAAUAGCACAGCCAGACUUGCUUCCUGCAUGGUAGGGAGAGACACAAAAGAUGGGAAACUGCUUUUCCACAAGGAAUCUCUGGAAUUCUCGGGUGCCAA: 3.37
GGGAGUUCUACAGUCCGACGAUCUUGUCUCCUCUAAUAAGCCCCACCCUCCCCGCCUGGGCUCCCCUUGCUGCCCUUGCCUGUUCCCCAUUAGCACAGGAGUAGCAGCAGCAGGACAGGCAAGAGCCUCACAAUGGAAUUCUCGGGUGCCAA: 0.393
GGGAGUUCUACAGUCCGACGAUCGGCGCUUCGAAAGGCGUGCAUGCAGAAAUGGCCGAGGACAUGCAGGUUUGGGUGGUGUGCCUGCAGACUUCAUUUGUGCCAAUGUAUUACUGUAGAGUCGCUCUGUUUCCUGGAAUUCUCGGGUGCCAA: 2.56
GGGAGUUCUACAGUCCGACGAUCGGAGACCUAGGUUUCAGCCCCUCUCUACUGUCAGCGAGCUGUGCAACGUGGGCAAGUCAUUGUCCUCUGAGCUGCAGUUUCCUCAUCUGUCACAUCGCUACAGACAAGACUGGAAUUCUCGGGUGCCAA: 0.2
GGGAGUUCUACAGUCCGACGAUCUAUACAUAUAAUUAUAUACAUAUAUGUAAUCUCAAUUAGGCAAUUUUAAUAGACUUCACAAAAAUAUUUUAAUAAUCAGACUGAGUGCUCUUGUUUUAUAAAUUUCACUGUGGAAUUCUCGGGUGCCAA: 0.663
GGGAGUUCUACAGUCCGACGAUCUAGUCUGACGCCACGCGCAUCUCUUGUUCUGUGUUCAAUCAGUAGUCCAGGGGAGAAGCUUCUGCUACUUCAGAGCUUUGCUAAACUAACCUAAUUUGUCCAAAUCACCCUGGAAUUCUCGGGUGCCAA: 0.301
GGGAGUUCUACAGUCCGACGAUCGCAGAAAUGGUUCUGCAAGAUGCUCAAAGGCAUGGAAGAAACAUAUUACUAUUUAUUGUUAAUAUCAUGGUCAUCUGAAGUUAAGUACUGGGAUAUAUUUUUCUAAUUUCUGGAAUUCUCGGGUGCCAA: 0.957
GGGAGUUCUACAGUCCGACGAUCAUUAGGAGAUAUUAAAAGAUUGAUGUCUUAGAAGGACAGGGUUAAAACCUUCUGUAAUAUAUUUAAAUAUAUAUUUUUAAGAGAGAUGCUACAUUGCCAAUGAUUUUAUAUGGAAUUCUCGGGUGCCAA: 0.879

Excerpt of the above (series 1):
CTTCTTGC: 0.151
CTAGTCCC: 0.00464
CACAAAAC: 0.12
ATTCGCGG: 0.143
AAGTCATT: -0.233
GGCGTGTA: -0.0176
GACAGTAA: -0.00694
GGGGCGAC: 0.0772
